Measured values gathered from unrelated publications.
Protocols differ between the studies behind these lines.
Sample: plasma
Route: oral

COc1cccc(-c2ccc(NC(=O)C3=C(C(=O)O)CCC3)c(F)c2)c1
Tmax (male human; 20 mg, single dose, fasted, healthy volunteers): 4 h

C[C@H](N)C(=O)N1C[C@H](CCCB(O)O)[C@](N)(C(=O)O)C1
Tmax (human; 50 mg twice daily, multiple doses, patients): 2 h

C[C@@H]1CCC[C@H](n2cnc(-c3cc(Cl)ccc3-n3cc(Cl)nn3)cc2=O)c2cc(ccn2)-c2c(cnn2C(F)F)NC1=O
Tmax (human; 300 mg, single dose, fasted, healthy volunteers): 3 h

CNc1nc(Nc2ccc(-n3cnc(C)n3)c(OC)c2)nc2c1CC[C@H]2c1ccc(F)cc1
Tmax (human; 10 mg, single dose, healthy volunteers): 3 h

Nc1ncc(-c2cnn(CCO)c2)c2scc(-c3ccc(NC(=O)Nc4cccc(F)c4)cc3)c12
Tmax (human; 440 mg, patients): 3.3 h

O=C(c1nc2n(n1)[C@H](c1ccccc1)C[C@@H]2F)C1CC1
Tmax (human; 225 mg, single dose, fasted, healthy volunteers): 3.5 h

CC(=O)N[C@H]1CC[C@H](NC(=O)CN2CCN(c3nncc(-c4ccc(C)cc4)n3)CC2)CC1
Tmax (human; 10 mg, single dose, fasted, healthy volunteers): 1.3 h

CCCOc1ccc([C@H]2CNC(=O)N2c2ccc3[nH]cnc3c2)cc1
Tmax (human; 1200 mg, single dose, fed): 1.25 h

C#C[C@]1(CO)O[C@@H](n2cnc3c(N)nc(F)nc32)C[C@@H]1O
Tmax (human; 400 mg, single dose, fasted): 0.5 h

CS(=O)(=O)n1cc2c(n1)CN([C@H]1CO[C@H](c3cc(F)ccc3F)[C@@H](N)C1)C2
Tmax (male human; 50 mg, multiple doses, healthy volunteers): 4 h

Excerpt of the above:
CC(=O)N[C@H]1CC[C@H](NC(=O)CN2CCN(c3nncc(-c4ccc(C)cc4)n3)CC2)CC1
Tmax (human; 10 mg, single dose, fasted, healthy volunteers): 1.3 h
